Literature values as cited in several papers.
Lines come from different studies, so protocols differ. ± marks the error that the study gave. Values after ≈ are worked out from the molar mass of the structure shown.
Sequence of UniProt Q9UK32 (whole entry, looked up): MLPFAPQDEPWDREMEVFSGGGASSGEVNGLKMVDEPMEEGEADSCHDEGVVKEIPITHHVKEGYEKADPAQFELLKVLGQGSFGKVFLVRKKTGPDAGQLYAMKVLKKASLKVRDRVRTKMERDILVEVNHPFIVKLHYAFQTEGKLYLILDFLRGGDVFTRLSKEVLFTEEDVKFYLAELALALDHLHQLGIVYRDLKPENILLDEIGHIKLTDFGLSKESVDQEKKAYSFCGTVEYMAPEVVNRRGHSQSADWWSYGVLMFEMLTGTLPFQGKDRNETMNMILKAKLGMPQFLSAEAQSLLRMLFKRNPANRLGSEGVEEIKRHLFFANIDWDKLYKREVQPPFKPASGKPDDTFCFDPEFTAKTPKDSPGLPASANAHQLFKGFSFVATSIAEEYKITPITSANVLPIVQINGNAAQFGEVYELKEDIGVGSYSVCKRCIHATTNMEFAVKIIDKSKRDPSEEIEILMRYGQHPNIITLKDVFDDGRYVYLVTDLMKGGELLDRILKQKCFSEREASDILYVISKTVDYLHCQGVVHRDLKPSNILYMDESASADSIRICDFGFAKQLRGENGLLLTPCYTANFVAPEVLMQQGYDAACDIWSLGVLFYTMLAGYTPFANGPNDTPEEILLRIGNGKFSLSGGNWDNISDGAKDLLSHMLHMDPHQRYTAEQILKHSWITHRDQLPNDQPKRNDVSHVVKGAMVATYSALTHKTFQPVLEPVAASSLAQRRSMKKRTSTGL

SMILES	tested on	assay	test system	setting	scale	endpoint	result
Cc1nccn1CC1CCc2c(c3ccccc3n2C)C1=O (centres unmarked)	HepG2	mitochondrial membrane potential	–	concentration not given, Tox21	–	activity outcome	inactive
[N-]=[N+]=N[C@]1(CO)O[C@@H](n2ccc(N)nc2=O)[C@@H](F)[C@@H]1O	C8166	–	–	–	–	CC50	> 100 µM
O=C1NC(=O)/C(=C/c2ccc3ncnc(N4CCC(F)(F)CC4)c3n2)S1	Caco-2	–	–	–	–	efflux ratio	1.6
CC(=O)O[C@H]1C(=O)[C@@]2(C)[C@H]([C@H](OC(=O)c3ccccc3)[C@]3(O)C[C@H](OC(=O)[C@H](O)[C@@H](NC(=O)c4ccccc4)c4ccccc4)C(C)=C1C3(C)C)[C@]1(OC(C)=O)CO[C@@H]1C[C@@H]2O	CFPAC-1	cytotoxicity	–	–	–	IC50	0.06 µM
CC1(C)S[C@@H]2[C@H](NC(=O)[C@H](N)c3ccccc3)C(=O)N2[C@H]1C(=O)O	Klebsiella pneumoniae	–	clinical isolate RKI 373/16-1	–	–	MIC	16 µg/mL (≈ 45.8 µM)
COc1cccc2c1C(=O)c1c(O)c3c(c(O)c1C2=O)C[C@@](O)(C(=O)CO)C[C@@H]3O[C@H]1C[C@H](N)[C@H](O)[C@H](C)O1	COLO 320 ABCB1-overexpressing	cell viability	–	–	–	IC50	3.07 µM
NC(=O)N1c2ccccc2C=Cc2ccccc21	HepG2	mitochondrial membrane potential	–	concentration not given, Tox21	–	activity outcome	inactive
C[C@@H]1O[C@@H](OC[C@H]2O[C@@H](Oc3c(-c4ccc(O)c(O)c4)oc4cc(O)cc(O)c4c3=O)[C@H](O)[C@@H](O)[C@@H]2O)[C@H](O)[C@H](O)[C@H]1O	Hep G2	–	–	–	–	CC50	322 µg/mL
CC(C)(c1ccc(O)cc1)c1ccc(O)cc1	C3A	micronucleus formation	–	–	–	lowest micronucleus-inducing concentration	≥ 40 µM
C/N=C(\C)c1c(O)c2ccccc2oc1=O	HL-60	–	–	–	–	cytotoxicity	408 µM
O=[N+]([O-])c1cn2c(n1)OC[C@@H](OCc1ccc(OC(F)(F)F)cc1)C2	HepG2	mitochondrial membrane potential	–	concentration not given, Tox21	–	activity outcome	inactive
CN(C)c1ccc(C(=O)N(CC(=O)NCc2ccccc2)Cc2ccc(C(=O)Nc3ccccc3N)cc2)cc1	Cal27CisR	cell viability, MTT	–	72 h	–	IC50	2.63 ± 0.31 µM
CC(C)NCC(O)COc1cccc2ccccc12 (centres unmarked)	Caco-2	–	–	–	–	permeability (Papp)	15.7 ×10⁻⁶ cm/s
Nc1cc(C(F)(F)F)c(-c2nc(N3CCOCC3)nc(N3CCOCC3)n2)cn1	Ribosomal protein S6 kinase alpha-6, N-terminal kinase domain (RPS6KA6, Homo sapiens, UniProt Q9UK32)	enzyme activity	–	10 µM	reference: untreated	remaining activity	100%
N#C/C=C/c1ccc2c(S(=O)(=O)n3nc(Nc4ccc(C#N)c(Cl)c4)nc3N)cccc2c1	TZM-bl	cytotoxicity	–	–	–	CC50	4.8 µM
CC1=C(/C=C/C(C)=C/C=C/C(C)=C/C(=O)O)C(C)(C)CCC1	mouse embryonic stem cells	–	–	–	–	lowest concentration disrupting development	≥ 4 nM
C=CCCC(=O)O	mouse 3T3 fibroblasts	cell viability	–	unbound medium concentration	–	IC10	78 µM
CCC(CC)COC(=O)[C@H](C)N[P@](=O)(OC[C@H]1O[C@@](C#N)(c2ccc3c(N)ncnn23)[C@H](O)[C@@H]1O)Oc1ccccc1	Caco-2	cytotoxicity	–	–	–	CC50	> 100 µM

SMILES	tested on	assay	test system	setting	scale	endpoint	result
Cc1nc2n(c(=O)c1CCN1CCC(c3noc4cc(F)ccc34)CC1)CCCC2	HepG2	mitochondrial membrane potential	–	concentration not given, Tox21	–	activity outcome	inactive
C[C@H]1COCCN1c1nc(-c2cnc(N)cc2C(F)F)nc(N2CCOCC2)n1	HCT-15	–	–	–	–	GI50	0.402 µM
CC[C@H]1OC(=O)[C@H](C)C(=O)[C@H](C)[C@@H](O[C@@H]2O[C@H](C)C[C@H](N(C)C)[C@H]2O)[C@](C)(OC)C[C@@H](C)C(=O)[C@H](C)[C@H]2N(CCCCn3cnc(-c4cccnc4)c3)C(=O)O[C@]12C	HepG2	mitochondrial membrane potential	–	concentration not given, Tox21	–	activity outcome	inactive
Cc1nc(-c2nnc3n2CCN(C(=O)c2ccc(-c4cccs4)cc2)[C@@H]3C)cs1	Caco-2	–	–	0.1% BSA	–	Papp A to B	48.2 ×10⁻⁶ cm/s
C[C@@H](c1ncncc1F)[C@](O)(Cn1cncn1)c1ccc(F)cc1F	HepG2	mitochondrial membrane potential	–	concentration not given, Tox21	–	activity outcome	inactive
CNC(C)C1CCC(N)C(OC2C(N)CC(N)C(OC3OCC(C)(O)C(NC)C3O)C2O)O1 (centres unmarked)	Klebsiella pneumoniae	–	clinical isolate RKI-No_93/10	–	–	MIC	> 8 µg/mL
Nc1ccccc1NC(=O)c1ccc(CNC(=O)OCc2cccnc2)cc1	Cal27CisR	cell viability, MTT	–	72 h	–	IC50	3.63 ± 0.3 µM
CC(F)(F)c1cc(F)ccc1-c1sc2cc(O)ccc2c1Oc1ccc(/C=C/C(=O)O)cc1	human hepatocytes	–	–	concentration not given	reference: positive control	CYP3A4 mRNA induction	< 10%
CN(C)C/C=C/C(=O)Nc1cc2c(Nc3ccc(F)c(Cl)c3)ncnc2cc1O[C@H]1CCOC1	Caco-2	–	–	300 µM	–	Papp B to A	6.99 ± 0.8 ×10⁻⁶ cm/s
COc1ccccc1OCCNCC(O)COc1cccc2[nH]c3ccccc3c12 (centres unmarked)	HepG2	mitochondrial membrane potential	–	concentration not given, Tox21	–	mitochondrial toxicity	active
COc1cc2c(cc1OC)C(c1c[nH]c3ncccc13)NCC2 (centres unmarked)	COLO 320 ABCB1-resistant colon	cytotoxicity	–	–	–	IC50	> 100 µM
CCCCC(C)C(=O)O (centres unmarked)	mouse 3T3 fibroblasts	cell viability	–	unbound medium concentration	–	IC10	6550 µM
CS(=O)(=O)c1ccc(Oc2cc(F)cc(C#N)c2)c2c1[C@H](O)[C@H](F)[C@@H]2F	HepG2	mitochondrial membrane potential	–	concentration not given, Tox21	–	activity outcome	inactive
CCS(=O)(=O)Nc1ccc(Oc2ccc(F)cc2F)c(-c2cn(C)c(=O)c3[nH]ccc23)c1	megakaryocyte colony-forming units	colony formation	–	–	–	EC50	0.003 µM
O=C1Oc2ccc3ccccc3c2C1c1c[nH]c2ccccc12 (centres unmarked)	COLO 320 ABCB1-overexpressing	cell viability	–	–	–	IC50	> 100 µM
Cc1cnc(N2CC3(CCOCC3)C2)c(C(=O)Nc2ccc(C(=O)N3CCc4cc(C(=O)Nc5c(C)cccc5F)sc4-c4ccccc43)cc2)c1	HEp-2	–	–	no effect at tested concentrations	–	cytotoxic concentration	> 10 µg/mL
C/C(=N\Cc1ccccc1)c1c(O)c2ccccc2oc1=O	HL-60	–	–	–	–	cytotoxicity	801 µM

Excerpt of the above:
SMILES	tested on	assay	test system	setting	scale	endpoint	result
CS(=O)(=O)c1ccc(Oc2cc(F)cc(C#N)c2)c2c1[C@H](O)[C@H](F)[C@@H]2F	HepG2	mitochondrial membrane potential	–	concentration not given, Tox21	–	activity outcome	inactive
O=C1Oc2ccc3ccccc3c2C1c1c[nH]c2ccccc12 (centres unmarked)	COLO 320 ABCB1-overexpressing	cell viability	–	–	–	IC50	> 100 µM
Cc1nc(-c2nnc3n2CCN(C(=O)c2ccc(-c4cccs4)cc2)[C@@H]3C)cs1	Caco-2	–	–	0.1% BSA	–	Papp A to B	48.2 ×10⁻⁶ cm/s
COc1cc2c(cc1OC)C(c1c[nH]c3ncccc13)NCC2 (centres unmarked)	COLO 320 ABCB1-resistant colon	cytotoxicity	–	–	–	IC50	> 100 µM
C/N=C(\C)c1c(O)c2ccccc2oc1=O	HL-60	–	–	–	–	cytotoxicity	408 µM
C/C(=N\Cc1ccccc1)c1c(O)c2ccccc2oc1=O	HL-60	–	–	–	–	cytotoxicity	801 µM
